{"data": "Published values gathered from unrelated publications", "note": "Numbered parts are unrelated; each lists some results of a single study."}
{"data": "Set 1", "target": "Prothrombin, mature alpha-thrombin (F2, Homo sapiens, UniProt P00734)", "method": "aptamer microarray, sandwich", "molecule type": "DNA with 2'F-ANA", "matrix": "in vitro", "concentration": "200 nM", "setting": "whole 15-mer aptamer, many near background", "with": "Cy3 exosite-II aptamer, 400 nM", "reading": "higher = stronger binding", "sequence": "GGTTGGTGTGGTTGG"}
{"Modification": "2'F-ANA at 1 2 3 7 9 10 11", "mean fluorescence intensity": "67.4 a.u."}
{"Modification": "2'F-ANA at 1 2 3 7 8 9 10 12 13 14", "mean fluorescence intensity": "56.4 a.u."}
{"Modification": "2'F-ANA at 2 4 6 7 8 15", "mean fluorescence intensity": "351 a.u."}
{"Modification": "2'F-ANA at 1 5 6 9 11 13 14", "mean fluorescence intensity": "51.7 a.u."}
{"Modification": "2'F-ANA at 1 2 3 4 5 6 7 10 11 14", "mean fluorescence intensity": "46.8 a.u."}
{"data": "Set 2", "target": "Histone acetyltransferase KAT6A, both winged helices, GST fusion (KAT6A, Homo sapiens, UniProt Q92794, residues 1-181)", "method": "protein binding microarray", "molecule type": "double-stranded DNA, one strand shown", "matrix": "in vitro", "concentration": "not given", "setting": "8-mer, flanks averaged, mean of 2 arrays, mostly near background", "relative to": "not given", "reading": "higher = stronger binding", "Construct (chain)": "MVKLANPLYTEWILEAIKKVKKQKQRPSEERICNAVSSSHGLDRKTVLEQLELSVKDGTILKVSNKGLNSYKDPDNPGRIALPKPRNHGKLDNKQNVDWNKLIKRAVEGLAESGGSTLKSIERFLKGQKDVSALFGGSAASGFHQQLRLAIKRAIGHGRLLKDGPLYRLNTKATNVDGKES"}
{"Sequence": "ACACTTCT", "E-score": -0.181}
{"Sequence": "GACGCAAC", "E-score": 0.176}
{"Sequence": "GCATATAC", "E-score": 0.0582}
{"data": "Mixed results", "Fmr1 C-terminal low-complexity region": "Fragile X messenger ribonucleoprotein 1, C-terminal low-complexity region (Fmr1, Mus musculus, UniProt P35922)"}
{"Molecule": "GGGAGUUCUACAGUCCGACGAUCUGGCCCUGGUGGCAUGCGGGGAGGAAGAGGUGGCCACAUGGAUCGUGGUGGUCCCGGUGGAAUGUUCAGAGGUGGCCGUGGUGGAGACAGUGGAAUUCUCGGGUGUCAAGG (7-deaza-guanosine replaces G)", "target": "Fmr1 C-terminal low-complexity region", "assay": "RNA Bind-n-Seq", "test system": "RNA, in vitro", "setting": "200 nM, whole 134-nt RNA, ends assumed, with: 150 mM LiCl", "how to read": "relative to: input library, higher = stronger binding", "quantity": "log2 enrichment", "result": 0.0162}
{"Molecule": "PhoQ, residues 284 288 289 292 302 303 AEGLLW", "target": "PhoP, residues 12 14 15 18 19 NQAHL (Escherichia coli, UniProt P23836)", "assay": "Sort-seq, item: YFP reporter", "test system": "E. coli", "setting": "PhoQ-PhoP variant library, with: 10 µM Mg2+", "how to read": "relative to: high Mg2+ state, higher = stronger signaling", "quantity": "fold induction", "result": 2.14}
{"Molecule": "GGGAGUUCUACAGUCCGACGAUCCAAGUCCUGUGCUACACAUCGUAUGUACCGAAUCGGGUUUGGUUUGGGUUUGGGGAAAGUAUUAUGUUACGCCGUUCGGAUCUGCACUUCUGGAAUUCUCGGGUGUCAAGG (7-deaza-guanosine replaces G)", "target": "Fmr1 C-terminal low-complexity region", "assay": "RNA Bind-n-Seq", "test system": "RNA, in vitro", "setting": "200 nM, whole 134-nt RNA, ends assumed, with: 150 mM LiCl", "how to read": "relative to: input library, higher = stronger binding", "quantity": "log2 enrichment", "result": -1.19}
{"Molecule": "GGGAGUUCUACAGUCCGACGAUCUCAAGUCCUGUGCUACACAUCGUAUGUACCGAAUCGGGGAAGGGAAGGGGAAGGGAAAGUAUUAUGUUACGCCGUUCGGAUCUGCACUUCUGGAAUUCUCGGGUGUCAAGG (7-deaza-guanosine replaces G)", "target": "Fmr1 C-terminal low-complexity region", "assay": "RNA Bind-n-Seq", "test system": "RNA, in vitro", "setting": "200 nM, whole 134-nt RNA, ends assumed, with: 150 mM LiCl", "how to read": "relative to: input library, higher = stronger binding", "quantity": "log2 enrichment", "result": -0.392}
{"note": "Excerpt of the above (mixed results):"}
{"Molecule": "GGGAGUUCUACAGUCCGACGAUCUGGCCCUGGUGGCAUGCGGGGAGGAAGAGGUGGCCACAUGGAUCGUGGUGGUCCCGGUGGAAUGUUCAGAGGUGGCCGUGGUGGAGACAGUGGAAUUCUCGGGUGUCAAGG (7-deaza-guanosine replaces G)", "target": "Fmr1 C-terminal low-complexity region", "assay": "RNA Bind-n-Seq", "test system": "RNA, in vitro", "setting": "200 nM, whole 134-nt RNA, ends assumed, with: 150 mM LiCl", "how to read": "relative to: input library, higher = stronger binding", "quantity": "log2 enrichment", "result": 0.0162}
